Measurements collected from several papers.
Numbered parts are unrelated; each lists some results of a single study.
Chain of UniProt Q13163 (whole entry, looked up): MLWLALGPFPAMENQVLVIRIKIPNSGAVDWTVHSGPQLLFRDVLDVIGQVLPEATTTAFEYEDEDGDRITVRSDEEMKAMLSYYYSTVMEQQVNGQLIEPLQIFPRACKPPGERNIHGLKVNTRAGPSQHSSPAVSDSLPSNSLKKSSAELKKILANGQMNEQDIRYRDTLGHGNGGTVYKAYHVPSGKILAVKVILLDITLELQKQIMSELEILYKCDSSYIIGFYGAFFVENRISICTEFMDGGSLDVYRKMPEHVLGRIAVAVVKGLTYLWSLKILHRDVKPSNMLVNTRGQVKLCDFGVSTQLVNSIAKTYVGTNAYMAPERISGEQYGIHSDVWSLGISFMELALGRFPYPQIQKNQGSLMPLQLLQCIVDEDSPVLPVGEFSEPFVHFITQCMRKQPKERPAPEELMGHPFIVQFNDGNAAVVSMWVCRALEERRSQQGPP
Chain of UniProt Q8WTQ7 (whole entry, looked up): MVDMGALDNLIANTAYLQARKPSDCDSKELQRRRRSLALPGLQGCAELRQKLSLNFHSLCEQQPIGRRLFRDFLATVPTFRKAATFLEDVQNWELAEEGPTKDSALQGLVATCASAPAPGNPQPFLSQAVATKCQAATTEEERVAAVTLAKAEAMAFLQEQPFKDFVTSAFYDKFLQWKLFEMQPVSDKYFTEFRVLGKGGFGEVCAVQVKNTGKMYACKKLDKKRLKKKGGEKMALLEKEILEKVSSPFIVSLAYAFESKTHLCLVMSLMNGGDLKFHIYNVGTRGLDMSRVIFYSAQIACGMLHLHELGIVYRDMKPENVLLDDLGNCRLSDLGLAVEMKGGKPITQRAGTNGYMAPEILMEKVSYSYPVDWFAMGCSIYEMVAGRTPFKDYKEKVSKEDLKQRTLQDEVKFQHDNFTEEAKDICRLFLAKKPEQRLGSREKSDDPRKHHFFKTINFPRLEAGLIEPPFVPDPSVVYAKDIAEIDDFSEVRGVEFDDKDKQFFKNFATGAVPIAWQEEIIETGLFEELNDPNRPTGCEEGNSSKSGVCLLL
Chain of UniProt Q9UL54 (whole entry, looked up): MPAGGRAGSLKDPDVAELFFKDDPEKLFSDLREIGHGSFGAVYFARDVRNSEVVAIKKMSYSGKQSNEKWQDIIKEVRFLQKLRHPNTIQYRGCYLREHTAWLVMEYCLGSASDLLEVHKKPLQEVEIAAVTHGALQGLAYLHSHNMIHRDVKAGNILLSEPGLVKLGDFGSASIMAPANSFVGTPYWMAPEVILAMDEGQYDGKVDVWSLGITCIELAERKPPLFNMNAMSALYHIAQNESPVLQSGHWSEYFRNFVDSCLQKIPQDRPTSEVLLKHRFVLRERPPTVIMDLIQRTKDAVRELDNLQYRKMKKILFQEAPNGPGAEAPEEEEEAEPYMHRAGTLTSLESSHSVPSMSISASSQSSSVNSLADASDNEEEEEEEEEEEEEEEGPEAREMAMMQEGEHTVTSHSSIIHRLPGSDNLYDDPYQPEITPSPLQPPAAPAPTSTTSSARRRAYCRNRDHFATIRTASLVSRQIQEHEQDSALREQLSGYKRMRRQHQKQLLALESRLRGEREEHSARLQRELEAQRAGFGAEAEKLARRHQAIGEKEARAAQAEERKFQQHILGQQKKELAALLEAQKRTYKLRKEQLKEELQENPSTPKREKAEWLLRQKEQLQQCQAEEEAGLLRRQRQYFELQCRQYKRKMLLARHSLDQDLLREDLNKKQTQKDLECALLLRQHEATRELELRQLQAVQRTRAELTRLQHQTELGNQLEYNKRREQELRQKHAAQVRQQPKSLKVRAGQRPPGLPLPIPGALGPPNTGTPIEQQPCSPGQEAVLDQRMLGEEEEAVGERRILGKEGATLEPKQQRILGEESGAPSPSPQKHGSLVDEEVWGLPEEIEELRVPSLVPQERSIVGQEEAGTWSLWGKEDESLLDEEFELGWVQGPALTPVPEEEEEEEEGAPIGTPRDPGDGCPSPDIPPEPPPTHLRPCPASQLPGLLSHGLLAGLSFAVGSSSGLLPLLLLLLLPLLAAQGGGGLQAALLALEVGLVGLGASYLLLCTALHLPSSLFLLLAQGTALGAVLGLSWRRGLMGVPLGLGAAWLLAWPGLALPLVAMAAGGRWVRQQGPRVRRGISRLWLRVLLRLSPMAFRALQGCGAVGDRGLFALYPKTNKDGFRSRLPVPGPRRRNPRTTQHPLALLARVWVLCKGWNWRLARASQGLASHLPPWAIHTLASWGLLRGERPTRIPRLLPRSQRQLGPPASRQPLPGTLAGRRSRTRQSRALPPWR
Chain of UniProt P00519 (whole entry, unmodified, looked up): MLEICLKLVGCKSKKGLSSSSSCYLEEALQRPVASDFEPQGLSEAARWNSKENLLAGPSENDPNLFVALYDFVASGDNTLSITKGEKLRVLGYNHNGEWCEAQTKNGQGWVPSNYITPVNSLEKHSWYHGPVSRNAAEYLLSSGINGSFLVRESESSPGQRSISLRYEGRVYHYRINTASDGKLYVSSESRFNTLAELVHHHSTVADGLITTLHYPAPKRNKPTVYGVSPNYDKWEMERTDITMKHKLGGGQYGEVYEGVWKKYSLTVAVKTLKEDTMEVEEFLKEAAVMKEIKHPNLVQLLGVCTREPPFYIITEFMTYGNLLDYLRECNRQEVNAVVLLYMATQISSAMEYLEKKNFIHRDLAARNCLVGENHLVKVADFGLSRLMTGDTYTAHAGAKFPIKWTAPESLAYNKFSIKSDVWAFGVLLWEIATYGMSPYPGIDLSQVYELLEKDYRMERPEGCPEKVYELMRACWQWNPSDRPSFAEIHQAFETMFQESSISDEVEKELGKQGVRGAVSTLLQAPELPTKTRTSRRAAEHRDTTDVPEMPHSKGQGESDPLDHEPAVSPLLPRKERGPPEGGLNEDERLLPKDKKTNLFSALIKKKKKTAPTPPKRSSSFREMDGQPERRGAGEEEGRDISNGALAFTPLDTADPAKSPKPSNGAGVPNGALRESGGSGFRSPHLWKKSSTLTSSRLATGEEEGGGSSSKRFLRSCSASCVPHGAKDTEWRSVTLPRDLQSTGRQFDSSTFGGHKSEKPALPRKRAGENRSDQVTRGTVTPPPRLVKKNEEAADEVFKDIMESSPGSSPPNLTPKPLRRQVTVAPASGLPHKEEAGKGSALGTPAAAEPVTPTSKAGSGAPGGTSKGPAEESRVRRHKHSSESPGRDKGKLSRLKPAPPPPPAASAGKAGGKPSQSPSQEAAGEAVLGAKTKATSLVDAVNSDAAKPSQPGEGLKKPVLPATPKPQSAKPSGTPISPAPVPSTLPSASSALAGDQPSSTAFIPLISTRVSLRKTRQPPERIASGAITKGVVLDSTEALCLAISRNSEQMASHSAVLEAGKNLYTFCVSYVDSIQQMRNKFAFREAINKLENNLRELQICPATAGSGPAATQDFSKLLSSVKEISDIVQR

Study 1
Target: Beta-1 adrenergic receptor (ADRB1, Homo sapiens, UniProt P08588)
Chain of UniProt P08588 (whole entry, looked up): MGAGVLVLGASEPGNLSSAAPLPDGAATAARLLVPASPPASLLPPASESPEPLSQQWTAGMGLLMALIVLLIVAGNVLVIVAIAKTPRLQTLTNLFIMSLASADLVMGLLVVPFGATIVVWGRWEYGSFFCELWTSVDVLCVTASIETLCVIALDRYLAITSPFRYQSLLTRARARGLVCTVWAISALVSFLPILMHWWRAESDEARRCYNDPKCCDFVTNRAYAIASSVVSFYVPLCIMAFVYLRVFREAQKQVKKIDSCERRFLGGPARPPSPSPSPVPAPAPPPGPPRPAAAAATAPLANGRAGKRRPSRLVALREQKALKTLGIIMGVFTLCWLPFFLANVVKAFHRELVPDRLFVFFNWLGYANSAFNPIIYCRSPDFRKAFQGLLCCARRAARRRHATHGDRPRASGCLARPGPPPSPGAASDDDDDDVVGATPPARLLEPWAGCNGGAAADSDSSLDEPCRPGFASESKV
Action: antagonist
For `Cc1cccc(OCC(O)CNC(C)C)c1` (stereo not shown), the IC50 was ≥ 100 µM.
`[O-][n+]1cccc(-c2nc3c(Cl)cccc3cc2[C@@H](Nc2ncnc3cccnc23)C(F)(F)F)c1` gave an IC50 of ≥ 100 µM.
`CCC(CC)C(=O)NC[C@H]1O[C@@H](CC(=O)N2CCN(c3ccccc3OC)CC2)[C@H](O)[C@@H]1O` has an IC50 of ≥ 100 µM.
For `COCCCNc1ncccc1-c1cc(-c2ccccc2)nc2c(C)noc12`, the IC50 was ≥ 100 µM.
`Cc1noc2c(NC3CCOCC3)cc(-c3ccsc3)nc12` has an IC50 of ≥ 100 µM.

Study 2
Target: Tyrosine-protein kinase Tec (TEC, Homo sapiens, UniProt P42680)
Observed: enzyme activity
Action: inhibitor
Concentration: 0.5 µM
Relative to: control
Target sequence (P42680 1-631): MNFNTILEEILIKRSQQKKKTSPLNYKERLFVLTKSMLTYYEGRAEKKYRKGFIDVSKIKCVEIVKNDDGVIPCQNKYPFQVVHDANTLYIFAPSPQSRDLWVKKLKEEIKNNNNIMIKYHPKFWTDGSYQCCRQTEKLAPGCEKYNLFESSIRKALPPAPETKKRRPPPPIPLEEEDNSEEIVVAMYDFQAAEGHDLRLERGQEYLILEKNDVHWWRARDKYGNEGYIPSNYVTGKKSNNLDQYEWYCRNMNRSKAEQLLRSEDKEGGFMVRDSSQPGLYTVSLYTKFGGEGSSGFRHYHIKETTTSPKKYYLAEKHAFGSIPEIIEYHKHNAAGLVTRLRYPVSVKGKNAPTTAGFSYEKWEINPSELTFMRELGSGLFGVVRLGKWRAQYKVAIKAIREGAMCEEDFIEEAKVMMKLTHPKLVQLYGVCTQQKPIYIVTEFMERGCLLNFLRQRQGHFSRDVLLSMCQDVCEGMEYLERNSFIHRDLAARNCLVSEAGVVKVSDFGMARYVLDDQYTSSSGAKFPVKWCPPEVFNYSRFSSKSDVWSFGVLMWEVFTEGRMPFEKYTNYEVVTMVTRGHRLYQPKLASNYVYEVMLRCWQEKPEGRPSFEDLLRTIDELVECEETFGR
`Cc1nc(-c2ccccc2)c(-c2ccncc2)o1` gave a remaining activity of 127%.
The remaining activity of `O=C(CCCc1ccc(-c2ccccc2F)cc1)Nc1ccc(O)cc1` is reported as 86%.
The remaining activity of `COc1ccc(C(=O)Nc2sc3c(c2C(N)=O)CCCC3)cc1OC` is reported as 115%.
The remaining activity of `O=c1c2ccccc2[nH]c(=S)n1CCN1CCC(=C(c2ccc(F)cc2)c2ccc(F)cc2)CC1` is reported as 110%.
With `CC(C)[C@H](CO)Nc1nc(Nc2cc(N)cc(Cl)c2)c2ncn(C(C)C)c2n1` the remaining activity was 130%.
For `Cn1c2ccccc2c2c3c(c4c5ccccc5n(CCC#N)c4c21)CNC3=O`, the remaining activity was 96.4%.
The remaining activity of `Oc1ccc(-c2nc(-c3ccncc3)c(-c3ccc(F)cc3)[nH]2)cc1` is reported as 106%.
`O=C(O)c1ccc2c3c1cccc3c(=O)n1c3ccccc3nc21` gave a remaining activity of 123%.
For `O=C1NC(=O)C(c2cn(CCCn3ccnc3)c3ccccc23)=C1Nc1ccccc1`, the remaining activity was 162%.
With `COc1ccc(OC)c2c(=S)c3ccccc3[nH]c12` the remaining activity was 147%.
For `OCC(O)CCON=C1C(c2c(O)[nH]c3ccccc23)=Nc2ccccc21` (stereo not shown), the remaining activity was 101%.
For `COc1cc2ncnc(Nc3ccc(Oc4ccccc4)cc3)c2cc1OC`, the remaining activity was 43.3%.
The remaining activity of `COc1cc2nccc(Oc3ccc(NC(=S)NC(=O)c4ccccc4C)cc3)c2cc1OC` is reported as 90.8%.
`Cc1cccc(-c2[nH]c(C(C)(C)C)nc2-c2ccc3c(c2)OCO3)n1` gave a remaining activity of 123%.
The remaining activity of `O=C(Nc1cccc(Nc2cc(Nc3cccc(C(F)(F)F)c3)ncn2)c1)C1CC1` is reported as 115%.
The remaining activity of `O=C1NC(=O)C(c2cn(CCCO)c3ncccc23)=C1c1cnccn1` is reported as 120%.

Study 3
SMILES: CN(c1ccnc(CNc2nc(Nc3ccc4c(c3)CC(=O)N4)ncc2C(F)(F)F)n1)S(C)(=O)=O
Observed: cell-free assay
Technique: competition with immobilised ligand
Concentration: 1 µM
For Cyclin-dependent kinase 4, with cyclin D1 (CDK4, Homo sapiens, UniProt P11802): remaining binding read 93%.
It gave 84% for remaining binding (Tyrosine-protein kinase ABL1, phosphorylated (ABL1, Homo sapiens, UniProt P00519, F317L)).
ERBB2 (Homo sapiens, UniProt P04626) — remaining binding: 100%.
PAK3 (Homo sapiens, UniProt O75914) — remaining binding: 88%.
For GRK7 (Homo sapiens, UniProt Q8WTQ7): remaining binding read 29%.
For TAOK2 (Homo sapiens, UniProt Q9UL54): remaining binding read 58%.
It gave 48% for remaining binding (MAP2K5 (Homo sapiens, UniProt Q13163)).

Study 4
Organism: Sarcocystis neurona
Observed: parasite growth
Concentration: 10 µM
Time: 96 h
Notes: first screen
Relative to: untreated
`CC(COc1ccccc1)NC(C)C(O)c1ccc(O)cc1` (stereo not shown) — result for “log2 fold change”: 0.034.
For `COc1cc2nc(N(C)CCCNC(=O)C3CCCO3)nc(N)c2cc1OC` (stereo not shown), “log2 fold change” read -0.12.
For `CC(=O)SCC(Cc1ccccc1)C(=O)NCC(=O)OCc1ccccc1` (stereo not shown), “log2 fold change” read 0.11.
`CN(C)c1ccc(O)c2c1C[C@H]1C[C@H]3[C@H](N(C)C)C(O)=C(C(N)=O)C(=O)[C@@]3(O)C(O)=C1C2=O` — result for “log2 fold change”: -1.36.
`COc1ccc(CC2c3cc(OC)c(OC)cc3CC[N+]2(C)CCC(=O)OCCCCCOC(=O)CC[N+]2(C)CCc3cc(OC)c(OC)cc3C2Cc2ccc(OC)c(OC)c2)cc1OC` (stereo not shown): “log2 fold change” -0.21.
Under “log2 fold change”, `O=C1c2c(O)cc(O)cc2OC(c2ccc(O)c(O)c2)C1O` (stereo not shown) is recorded as 0.09.

Excerpt of the above (study 4):
`CC(COc1ccccc1)NC(C)C(O)c1ccc(O)cc1` (stereo not shown) — result for “log2 fold change”: 0.034.
For `COc1cc2nc(N(C)CCCNC(=O)C3CCCO3)nc(N)c2cc1OC` (stereo not shown), “log2 fold change” read -0.12.
For `CC(=O)SCC(Cc1ccccc1)C(=O)NCC(=O)OCc1ccccc1` (stereo not shown), “log2 fold change” read 0.11.
`CN(C)c1ccc(O)c2c1C[C@H]1C[C@H]3[C@H](N(C)C)C(O)=C(C(N)=O)C(=O)[C@@]3(O)C(O)=C1C2=O` — result for “log2 fold change”: -1.36.
`COc1ccc(CC2c3cc(OC)c(OC)cc3CC[N+]2(C)CCC(=O)OCCCCCOC(=O)CC[N+]2(C)CCc3cc(OC)c(OC)cc3C2Cc2ccc(OC)c(OC)c2)cc1OC` (stereo not shown): “log2 fold change” -0.21.
